Measurements pooled from the literature.
A part holds a random share of what one study measured. Positions count from the first letter of the parent shown.

Series 1
Target: BIRC6 UBC core domain (UniProt Q9NR09)
Technique: yeast two-hybrid
Matrix: yeast
Setting: mostly zero background
Baseline: not given
Reading: higher = stronger interaction
B1: RNF38 RING domain (UniProt Q9H0F5); chain PNNHQSEQTLCVVCMCDFESRQLLRVLPCNHEFHAKCVDKWLKANRTCPICRADASEVHRDS
B2: TRIML1 RING domain (UniProt Q8N9V2); chain LMENLREELTCFICLDYFSSPVTTECGHSFCLVCLLRSWEEHNTPLSCPECWRTLEGPHFQS
B3: VPS41 RING domain (UniProt P49754); chain KGVLVDEENICESCLSPILPSDAAKPFSVVVFHCRHMFHKECLPMPSMNSAAQFCNICSAKNRGPGSAI
B4: TRIM4 RING domain (UniProt Q9C037); chain EAEDIQEELTCPICLDYFQDPVSIECGHNFCRGCLHRNWAPGGGPFPCPECRHPSAPAALRP
B5: RNF208 RING domain (UniProt Q9H0X6); chain SSAAAGEPLECPTCGHSYNVTQRRPRVLSCLHSVCEQCLQILYESCPKYKFISCPTCRRETVLFTDYG
B6: SH3RF2 RING domain (UniProt Q8TEC5); chain DDLTLLDLLECPVCFEKLDVTAKVLPCQHTFCKPCLQRVFKAHKELRCPECRTPVFSNIEAL
B7: RNF111 RING domain (UniProt Q6ZNA4); chain EGTEEDTEEKCTICLSILEEGEDVRRLPCMHLFHQVCVDQWLITNKKCPICRVDIEAQLPSE
B8: TRIM40 RING domain (UniProt Q6P9F5); chain LQKDNQEEGVCPICQESLKEAVSTNCGHLFCRVCLTQHVEKASASGVFCCPLCRKPCSEEVLG
B9: TRIM5 RING domain (UniProt Q9C035); chain ILVNVKEEVTCPICLELLTQPLSLDCGHSFCQACLTANHKKSMLDKGESSCPVCRISYQPENIRP
Construct (chain): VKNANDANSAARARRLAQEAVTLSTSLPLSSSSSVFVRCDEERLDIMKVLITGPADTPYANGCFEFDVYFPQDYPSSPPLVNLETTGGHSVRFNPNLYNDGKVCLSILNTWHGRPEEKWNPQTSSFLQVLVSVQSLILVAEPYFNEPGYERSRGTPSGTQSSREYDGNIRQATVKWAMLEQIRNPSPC
Sequence | lacZ reporter activity
B1 (RNF38 RING domain) | 0
B2 (TRIML1 RING domain) | 0
ASLPTSEEDLCPICYAHPISAVFQPCGHKSCKACINQHLMNNKDCFFCKTTIVSVEDWE (RNF123 RING domain (UniProt Q5XPI4)) | 0
B3 (VPS41 RING domain) | 0
GAAPGPEAAECLVCSELALLVLFSPCQHRTVCEECARRMKKCIRCQVVVSKKLRPD (MIB2 RING domain (UniProt Q96AX9)) | 0
MPIRALCTICSDFFDHSRDVAAIHCGHTFHLQCLIQWFETAPSRTCPQCRIQVGKRTIIN (TRAIP RING domain (UniProt Q9BWF2)) | 0
B4 (TRIM4 RING domain) | 0
QVDKAVFHMQSVKCLKCQEQKRAVLPCQHAALCELCAEGSECPICQPGRAHTLQS (UNK RING domain (UniProt Q9C0B0)) | 0
B5 (RNF208 RING domain) | 0
B6 (SH3RF2 RING domain) | 0
B7 (RNF111 RING domain) | 0
B8 (TRIM40 RING domain) | 0
B9 (TRIM5 RING domain) | 0

Series 2
Target: CCNE1, cyclin fold, Cln2 fusion (human)
Technique: yeast growth competition, sequencing
Matrix: yeast
Setting: strong parent motif
Baseline: not given
Reading: higher = stronger binding
Parent: E2F1 docking peptide (human); PPVKRRLDLETDH; partner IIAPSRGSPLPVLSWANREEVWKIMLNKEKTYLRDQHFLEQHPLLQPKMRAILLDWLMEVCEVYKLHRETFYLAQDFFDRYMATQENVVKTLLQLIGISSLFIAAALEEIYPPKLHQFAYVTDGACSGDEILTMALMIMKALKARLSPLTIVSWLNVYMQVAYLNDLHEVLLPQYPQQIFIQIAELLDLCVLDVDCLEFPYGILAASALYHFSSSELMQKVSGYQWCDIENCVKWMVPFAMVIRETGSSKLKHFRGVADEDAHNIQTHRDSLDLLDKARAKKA
Variant | normalised enrichment score
H13P | 2.32
K4S | 0.921
P2E | 0.907
K4Q | 0.46
K4I | 0.951
D12V | 1.57
P1G | 1.11
D12G | 1.51
H13Q | 2.3
P2L | 0.704
R5E | 0.892
E10D | 3.67
P2H | 2.23
T11H | 0.874
R6W | 0.615
R6K | 1.17
V3T | 0.438
D12Q | 1.95
R6A | 0.112
D12P | 2.33
V3M | 0.794
D12K | 1.61
L7H | 0.49
R6F | 0.06

Series 3
Target: Sal-like protein 4, full length isoform B (SALL4, Homo sapiens, UniProt Q9UJQ4-2, residues 1-616)
Technique: universal PBM
Form: double-stranded DNA, one strand shown
Matrix: in vitro
Tested at: not given
Setting: 8-mer, flanks averaged, mean of replicates
Reading: higher = stronger binding
Oligonucleotide | E-score
AACGGGGC | -0.153
ATCTCCAA | 0.145
GCACCTAC | -0.243
AGGTCTAA | 0.055
GCTAGAGC | -0.185
AGGCGGAA | 0.116
CGTGTCAC | -0.0349
CCATATGG | -0.0324
AATGTAGG | 0.0265
ATGGGCGC | -0.249
TCGGAGCA | -0.116
ACGTAGTC | 0.0271
ACCCGATG | -0.191
AAAAGGAC | 0.0382
GCTCATCA | -0.0103
GTGGATTA | 0.115
ACACGACG | 0.0608
AATAAGAT | 0.255
CGTACAGA | 0.122
GCAGAGAC | -0.239
GTACGATA | 0.28
ACGAATAA | 0.268
CCGTAAAA | 0.153
AATGCCTG | -0.0607
CCCCGAGA | -0.131

Series 4
Target: RNA binding protein fox-1 homolog 2, RRM domain, GST-SBP tag (RBFOX2, Homo sapiens, UniProt O43251-10, residues 100-194)
Technique: RNA Bind-n-Seq
Form: RNA
Matrix: in vitro
Tested at: 365 nM
Setting: natural RNA segment, single round, ends assumed
Baseline: no-protein control
Reading: higher = stronger binding
Target sequence (chain): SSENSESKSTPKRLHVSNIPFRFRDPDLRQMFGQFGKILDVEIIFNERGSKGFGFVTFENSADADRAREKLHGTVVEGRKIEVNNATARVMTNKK
Oligonucleotide | RBNS enrichment (R)
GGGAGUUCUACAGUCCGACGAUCAAUAGGGAAGAAGUGCCCUGCCUGCCAGCUUGGGAGUGAUUUGUACCUGUGUAUUUAUCCUUGAUCAUAGUUUGCUUAUUUAUGUUUAACUCUUCGGACUUCAGAGCACUUGGAAUUCUCGGGUGCCAA | 0.698
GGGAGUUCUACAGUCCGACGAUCGCCAUGCUGCUCCUUUCUGUAAAUACCCGCUGCAGUGGCGGCCCAGAGCGAGGAACAAGCCAUUAGGACCUGACCGUUGUAAAUACAGCCGCCCGCCCGCCGGUCCCCAGUGGAAUUCUCGGGUGCCAA | 0.318
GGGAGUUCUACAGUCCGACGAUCCUCUGUGGUCCUCCCCUCCUGACCCAGGCCUCUGUGGCAUGCUGCAAGGAUCAGAGCCAGACACCAGGAGUCACAGGCCCCACCCAGGAAGGGCAUUCAGGGCCCCUGGGUGGAAUUCUCGGGUGCCAA | 18.2
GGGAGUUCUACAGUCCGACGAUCUCUUUGGGCCUCAGUUUUAUCAUUUAUACAAGGAGGGCUUUUCUAGCUGUAACAAUCUGUGAGGAUUGAGAGGAUAGGCUGGUGCUUUGAAGAAAGGCCUUGUAAGUGACUGGAAUUCUCGGGUGCCAA | 0.561
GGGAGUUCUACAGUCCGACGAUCCCAGUGCAUCAUCAGAAGCCUUCCUCGUGACCAUAACUCUGUGUCUGCAGAUAUGUGUUCCCGUGUAAGCCAGUUUUCCCCUUUUACUCAGACUGAUUUCACCUAGAUUGUGGAAUUCUCGGGUGCCAA | 0.314
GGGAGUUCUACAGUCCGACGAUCGUAGAGUCAGGAGGGCAGGCUAGAUGCUCAGCCACAAGACAGCCUUUACUGAAAAAGCUAUUGGACUCUUGCUCUUUCUAGCUCUGAACUAAUAAAUGUCUUAUCACGCUUGGAAUUCUCGGGUGCCAA | 0.377
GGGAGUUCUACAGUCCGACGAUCUCACGUUAUAAAUGUUUUGUAGUGAACCCAGGGUGGGUGAGGGGGAAGCAUCUGUCUCACAUAGGCUGUAAGCUCUCUGAGAGCAGGCACCUGUCAUCCCAGUCCAUCCCUGGAAUUCUCGGGUGCCAA | 0.343
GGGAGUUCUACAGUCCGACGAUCGGUGCCACCAGCACCCGUGCCUCCGAAGACCGCUCGGGCAUUCCGCCUGCGCCCUGGGACAGCGGAGAGACGGCUUCUCUUUAAUCUAGGUCCCAUUGUGUCUUGAGGGAUGGAAUUCUCGGGUGCCAA | 0.487

Series 5
Target: ABI1, truncated, D143A, DHFR fusion (Arabidopsis thaliana)
Technique: DHFR PCA, deep sequencing
Matrix: yeast
Setting: methotrexate growth selection, single substitutions
Added: (+)-ABA 0.0091 µM
Baseline: wild-type fitted maximum
Reading: higher = stronger binding
Parent: PYL1, truncated, DHFR fusion (Arabidopsis thaliana); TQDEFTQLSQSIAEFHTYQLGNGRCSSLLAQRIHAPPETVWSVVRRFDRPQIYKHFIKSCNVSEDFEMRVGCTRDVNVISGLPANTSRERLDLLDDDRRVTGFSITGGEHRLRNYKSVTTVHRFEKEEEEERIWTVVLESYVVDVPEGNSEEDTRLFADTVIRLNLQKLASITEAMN
Variant | relative binding score
V145F | -7.43%
Y18G | -1.76%
Q2A | 55.3%
V118A | 15.8%
S9K | 68.1%
T1V | 40.4%
S150F | -0.428%
A170W | -3.37%
E152M | 5.75%
R99H | 61%
N165L | -2.07%
G102Q | -6.89%
S104C | -4.09%
T135P | -9.42%
R74M | 0.128%

A few entries again (series 4):
Oligonucleotide | RBNS enrichment (R)
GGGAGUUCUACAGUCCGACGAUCAAUAGGGAAGAAGUGCCCUGCCUGCCAGCUUGGGAGUGAUUUGUACCUGUGUAUUUAUCCUUGAUCAUAGUUUGCUUAUUUAUGUUUAACUCUUCGGACUUCAGAGCACUUGGAAUUCUCGGGUGCCAA | 0.698
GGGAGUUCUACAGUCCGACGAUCGCCAUGCUGCUCCUUUCUGUAAAUACCCGCUGCAGUGGCGGCCCAGAGCGAGGAACAAGCCAUUAGGACCUGACCGUUGUAAAUACAGCCGCCCGCCCGCCGGUCCCCAGUGGAAUUCUCGGGUGCCAA | 0.318
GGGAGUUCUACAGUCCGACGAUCCUCUGUGGUCCUCCCCUCCUGACCCAGGCCUCUGUGGCAUGCUGCAAGGAUCAGAGCCAGACACCAGGAGUCACAGGCCCCACCCAGGAAGGGCAUUCAGGGCCCCUGGGUGGAAUUCUCGGGUGCCAA | 18.2
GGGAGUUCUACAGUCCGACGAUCUCUUUGGGCCUCAGUUUUAUCAUUUAUACAAGGAGGGCUUUUCUAGCUGUAACAAUCUGUGAGGAUUGAGAGGAUAGGCUGGUGCUUUGAAGAAAGGCCUUGUAAGUGACUGGAAUUCUCGGGUGCCAA | 0.561
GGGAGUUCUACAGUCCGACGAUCCCAGUGCAUCAUCAGAAGCCUUCCUCGUGACCAUAACUCUGUGUCUGCAGAUAUGUGUUCCCGUGUAAGCCAGUUUUCCCCUUUUACUCAGACUGAUUUCACCUAGAUUGUGGAAUUCUCGGGUGCCAA | 0.314
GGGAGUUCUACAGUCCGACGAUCGUAGAGUCAGGAGGGCAGGCUAGAUGCUCAGCCACAAGACAGCCUUUACUGAAAAAGCUAUUGGACUCUUGCUCUUUCUAGCUCUGAACUAAUAAAUGUCUUAUCACGCUUGGAAUUCUCGGGUGCCAA | 0.377
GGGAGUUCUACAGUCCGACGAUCUCACGUUAUAAAUGUUUUGUAGUGAACCCAGGGUGGGUGAGGGGGAAGCAUCUGUCUCACAUAGGCUGUAAGCUCUCUGAGAGCAGGCACCUGUCAUCCCAGUCCAUCCCUGGAAUUCUCGGGUGCCAA | 0.343
